{"data": "Published values gathered from unrelated publications", "note": "Each numbered part is a random draw from the data of one study; scales do not carry over between parts.", "UniProt P47898, sequence (whole entry, looked up)": "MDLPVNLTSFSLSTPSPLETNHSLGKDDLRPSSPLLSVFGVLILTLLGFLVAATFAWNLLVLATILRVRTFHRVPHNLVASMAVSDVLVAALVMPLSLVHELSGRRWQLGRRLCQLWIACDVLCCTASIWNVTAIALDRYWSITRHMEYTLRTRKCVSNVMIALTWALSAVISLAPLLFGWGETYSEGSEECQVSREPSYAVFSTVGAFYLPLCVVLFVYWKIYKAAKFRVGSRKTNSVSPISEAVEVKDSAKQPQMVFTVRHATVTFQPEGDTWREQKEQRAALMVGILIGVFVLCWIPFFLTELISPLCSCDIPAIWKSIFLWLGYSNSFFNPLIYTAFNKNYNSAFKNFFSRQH"}
{"data": "Study 1", "Structure (SMILES)": "CC(C)n1cnc(-c2ccc(F)cc2)c1-c1ncc(C(=O)Nc2ccc(N3CCN(C)CC3)cc2)[nH]1"}
{"system": "human, idiopathic pulmonary fibrosis", "conditions": "60 mg once daily, trial, treatment-emergent", "patients with pulmonary embolism [%]": 0}
{"assay": "phase 2a trial", "system": "idiopathic pulmonary fibrosis patients", "conditions": "60 mg once daily, grade 1 emergent event", "patients with pulmonary embolism [%]": 0}
{"assay": "phase 2a trial", "system": "idiopathic pulmonary fibrosis patients", "conditions": "60 mg once daily, grade 4 emergent event", "patients with pulmonary embolism [%]": 0}
{"assay": "phase 2a trial", "system": "idiopathic pulmonary fibrosis patients", "conditions": "30 mg once daily, grade 4 emergent event", "patients with pulmonary embolism [%]": 0}
{"assay": "phase 2a trial", "system": "idiopathic pulmonary fibrosis patients", "conditions": "30 mg once daily, grade 2 emergent event", "patients with pulmonary embolism [%]": 0}
{"assay": "phase 2a trial", "system": "idiopathic pulmonary fibrosis patients", "conditions": "30 mg once daily, grade 3 emergent event", "patients with pulmonary embolism [%]": 0}
{"assay": "phase 2a trial", "system": "idiopathic pulmonary fibrosis patients", "conditions": "all arms, grade 2 emergent event", "patients with pulmonary embolism [%]": 0}
{"assay": "phase 2a trial", "system": "idiopathic pulmonary fibrosis patients", "conditions": "all arms, grade 1 emergent event", "patients with pulmonary embolism [%]": 0}
{"assay": "phase 2a trial", "system": "idiopathic pulmonary fibrosis patients", "conditions": "60 mg once daily, grade 3 emergent event", "patients with pulmonary embolism [%]": 0}
{"assay": "phase 2a trial", "system": "idiopathic pulmonary fibrosis patients", "conditions": "30 mg once daily, grade 5 emergent event", "patients with pulmonary embolism [%]": 0}
{"system": "human, idiopathic pulmonary fibrosis", "conditions": "30 mg once daily, trial, treatment-emergent", "patients with pulmonary embolism [%]": 0}
{"assay": "phase 2a trial", "system": "idiopathic pulmonary fibrosis patients", "conditions": "60 mg once daily, grade 5 emergent event", "patients with pulmonary embolism [%]": 0}
{"data": "Study 2", "target": "cAMP-dependent protein kinase catalytic subunit PRKX (PRKX, Homo sapiens, UniProt P51817)", "observed": "enzyme activity", "action": "inhibitor", "concentration": "0.5 µM", "relative to": "control", "Residues (P51817 1-358)": "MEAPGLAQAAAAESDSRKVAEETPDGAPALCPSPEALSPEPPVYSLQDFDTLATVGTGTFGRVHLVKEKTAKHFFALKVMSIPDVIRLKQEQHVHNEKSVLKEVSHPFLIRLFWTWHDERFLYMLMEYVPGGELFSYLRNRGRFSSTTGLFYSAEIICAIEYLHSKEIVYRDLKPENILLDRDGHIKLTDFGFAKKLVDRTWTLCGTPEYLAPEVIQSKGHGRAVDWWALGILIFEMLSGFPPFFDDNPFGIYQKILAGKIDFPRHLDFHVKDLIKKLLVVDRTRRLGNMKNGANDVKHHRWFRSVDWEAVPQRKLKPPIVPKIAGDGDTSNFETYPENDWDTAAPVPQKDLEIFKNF"}
{"Structure (SMILES)": "N#CC(c1ccnc(NCCc2cccnc2)n1)c1nc2ccccc2s1 (stereo not shown)", "remaining activity [%]": 96.4}
{"Structure (SMILES)": "O=Nc1c(-c2c(O)[nH]c3ccccc23)[nH]c2ccccc12", "remaining activity [%]": 88.8}
{"Structure (SMILES)": "COc1cc2c(Nc3ccc(Br)cc3F)ncnc2cc1OCC1CCN(C)CC1", "remaining activity [%]": 105}
{"Structure (SMILES)": "COc1cc2c(N3CCN(C(=O)Nc4ccc(OC(C)C)cc4)CC3)ncnc2cc1OCCCN1CCCCC1", "remaining activity [%]": 108}
{"Structure (SMILES)": "NC(=O)c1cccc(-c2cc(Nc3ccc(OC(F)(F)F)cc3)ncn2)c1", "remaining activity [%]": 105}
{"Structure (SMILES)": "O=C(O)/C=C/c1cc(Br)c(Br)c(Br)c1Br", "remaining activity [%]": 96}
{"Structure (SMILES)": "CCN(CC)CCCCN1c2ccccc2Oc2ccc(Cl)cc21", "remaining activity [%]": 103}
{"Structure (SMILES)": "CC(C)N(CCC(=O)c1ccc2ccccc2c1)Cc1ccccc1", "remaining activity [%]": 99.6}
{"Structure (SMILES)": "O=c1c(-c2ccc(F)cc2)c(-c2ccncc2)[nH]n1-c1ccc(Cl)cc1", "remaining activity [%]": 97}
{"Structure (SMILES)": "C[C@@H](N)[C@H]1CC[C@H](C(=O)Nc2ccncc2)CC1", "remaining activity [%]": 63.3}
{"Structure (SMILES)": "N#C/C(=C(/N)SC1C=CC=CC1)c1cccc(C(O)c2ccncc2)c1 (stereo not shown)", "remaining activity [%]": 102}
{"Structure (SMILES)": "c1cc(-c2cnn3cc(-c4ccc(OCCN5CCCCC5)cc4)cnc23)ccn1", "remaining activity [%]": 58.2}
{"Structure (SMILES)": "O=C(c1ccccc1)c1ccc(N2CCOCC2)cc1O", "remaining activity [%]": 109}
{"Structure (SMILES)": "Nc1nc(Nc2ccc(S(N)(=O)=O)cc2)nn1C(=S)Nc1c(F)cccc1F", "remaining activity [%]": 76.3}
{"Structure (SMILES)": "CNc1cc2c(Nc3cccc(Br)c3)ncnc2cn1", "remaining activity [%]": 97.1}
{"Structure (SMILES)": "CCCCc1c(-c2ccc(O)cc2)[nH]c2nccnc12", "remaining activity [%]": 110}
{"Structure (SMILES)": "CC(C)n1cnc2c(Nc3cccc(Cl)c3)nc(NCCO)nc21", "remaining activity [%]": 96.4}
{"Structure (SMILES)": "Clc1ccc(Nc2nnc(Cc3ccncc3)c3ccccc23)cc1", "remaining activity [%]": 152}
{"Structure (SMILES)": "O=C1NC(=O)/C(=C/c2ccc3c(c2)OC(F)(F)O3)S1", "remaining activity [%]": 101}
{"Structure (SMILES)": "CC(C)(C)c1nc2c3cc[nH]c(=O)c3c3cc(F)ccc3c2[nH]1", "remaining activity [%]": 79.2}
{"Structure (SMILES)": "O=C1c2ccccc2-c2nc3nnnn3nc21", "remaining activity [%]": 94.3}
{"Structure (SMILES)": "NC(=O)c1ccc(-c2nc(-c3ccc4c(c3)OCCO4)c(-c3ccccn3)[nH]2)cc1", "remaining activity [%]": 99.5}
{"Structure (SMILES)": "FC(F)(F)c1ccc(/C=C/c2nc(COc3ccc(CCCCn4ccnn4)cc3)co2)cc1", "remaining activity [%]": 95.3}
{"data": "Study 3", "species": "mouse", "medium": "microsomes or S9", "concentration": "2 µM", "time": "0.5 h"}
{"Structure (SMILES)": "N#Cc1ccc(C(=O)N2CCC(N(Cc3ccccc3)C(=O)c3ccc(C#N)[nH]3)C2)[nH]1 (stereo not shown)", "remaining compound": "55.1%"}
{"Structure (SMILES)": "CC(C)c1ccccc1NC(=O)N1CCC[C@H]2C(=O)NC[C@H]21", "remaining compound": "77.7%"}
{"Structure (SMILES)": "CCC(Oc1cc(C)ccc1Cl)C(=O)Nc1cccnc1 (stereo not shown)", "remaining compound": "0.0424%"}
{"Structure (SMILES)": "O=C1CCC(=O)N1OCCCOc1ccc2c(c1)CCC2", "remaining compound": "35.2%"}
{"Structure (SMILES)": "CCOC(=O)Nc1cc(-n2c(=O)nc(N(C)C)n(C)c2=O)c(F)cc1Cl", "remaining compound": "96.2%"}
{"Structure (SMILES)": "CNC(=O)c1nnn2c1[nH]c(=O)c1c(C)c(C)sc12", "remaining compound": "46.3%"}
{"Structure (SMILES)": "CC(=O)N1N=C(c2c(-c3ccccc3)c3ccccc3[nH]c2=O)CC1c1ccnc2ccccc12 (stereo not shown)", "remaining compound": "12.1%"}
{"Structure (SMILES)": "c1nc2nc[nH]c(N3CCN(Cc4ccc5c(c4)OCO5)CC3)c-2n1", "remaining compound": "47.2%"}
{"Structure (SMILES)": "Cn1c(Cn2cc(-c3nnco3)ccc2=O)nc2cc(Cl)ccc21", "remaining compound": "74%"}
{"Structure (SMILES)": "O=C(C1CCOCC1)N1CCCC(Cn2cnc3cccnc32)C1 (stereo not shown)", "remaining compound": "91.4%"}
{"Structure (SMILES)": "c1ccc(-c2cc(-c3cc4ccccc4o3)nc3nnnn23)cc1", "remaining compound": "21.1%"}
{"data": "Mixed results"}
{"SMILES": "CN(C)C(=O)N1CC[C@H](N=C2Nc3cc(F)ccc3N(CC(F)F)c3ccc(Cl)cc32)C1", "tested on": "sample J colorectal tumour organoid", "conditions": "0.1 µM", "scale": "relative to: DMSO", "measurement": "viability", "result": "105%"}
{"SMILES": "CC[C@H](CC(=O)O)n1c(=O)c2ncccc2n(Cc2cn(C)c3cc(C)cc(C)c23)c1=O", "tested on": "HTR5A (Homo sapiens, UniProt P47898)", "assay": "ligand displacement", "conditions": "10 µM", "measurement": "inhibition", "result": "5.71%"}
{"SMILES": "CN(C)C(=O)/C(C#N)=C/c1ccc(-c2nc3cnc4c(ccn4C)c3n2C2CCCCC2)o1", "tested on": "sample J colorectal tumour organoid", "conditions": "0.1 µM", "scale": "relative to: DMSO", "measurement": "viability", "result": "111%"}
{"note": "Some of these lines once more (study 2):"}
{"Structure (SMILES)": "Nc1nc(Nc2ccc(S(N)(=O)=O)cc2)nn1C(=S)Nc1c(F)cccc1F", "remaining activity [%]": 76.3}
{"Structure (SMILES)": "O=C1c2ccccc2-c2nc3nnnn3nc21", "remaining activity [%]": 94.3}
{"Structure (SMILES)": "c1cc(-c2cnn3cc(-c4ccc(OCCN5CCCCC5)cc4)cnc23)ccn1", "remaining activity [%]": 58.2}
{"Structure (SMILES)": "COc1cc2c(N3CCN(C(=O)Nc4ccc(OC(C)C)cc4)CC3)ncnc2cc1OCCCN1CCCCC1", "remaining activity [%]": 108}
{"Structure (SMILES)": "O=Nc1c(-c2c(O)[nH]c3ccccc23)[nH]c2ccccc12", "remaining activity [%]": 88.8}
{"Structure (SMILES)": "C[C@@H](N)[C@H]1CC[C@H](C(=O)Nc2ccncc2)CC1", "remaining activity [%]": 63.3}
{"Structure (SMILES)": "O=C1NC(=O)/C(=C/c2ccc3c(c2)OC(F)(F)O3)S1", "remaining activity [%]": 101}
{"Structure (SMILES)": "CNc1cc2c(Nc3cccc(Br)c3)ncnc2cn1", "remaining activity [%]": 97.1}
